Published values collected from several papers.
Protocols differ between the studies behind these lines.

CNC(=O)N[C@]1(C)CCC[C@@]2(C)C3CC[C@@]4(C)C[C@]3(CCC21)CC4=O (single isomer, unassigned) — Cmax (male Sprague-Dawley rat, plasma; oral, 2 mg/kg): 71.4 ng/mL
Cc1ccc(OCC(=O)N(Cc2cccs2)c2ccn[nH]2)cc1 — Cmax (female Sprague-Dawley rat, plasma; oral, 100 mg/kg, single dose): 47.8 ng/mL
CC12CC3CC(C)(C1)CC(NC(=O)Nc1ccc(C(=O)N4CCCC(C(N)=O)C4)cc1)(C3)C2 (stereo not shown) — Cmax (Sprague-Dawley rat, plasma; intravenous, 10 mg/kg): 30.1 µM
O=C(Nc1ccc(C(F)(F)F)nc1)N1CCC(Cc2cccc(Oc3ccc(C(F)(F)F)cn3)c2)CC1 — Cmax (male Sprague-Dawley rat, blood; oral, 1 mg/kg): 0.095 µM
N#Cc1cnc2cc(OCC3CCNCC3)c(F)cc2c1Nc1cc(F)c(OCc2cccc(Cl)n2)cc1Cl — Cmax (male Sprague-Dawley rat, plasma; oral, 100 mg/kg): 396 ng/mL
CCNC(=O)[C@@H]1CCCN1C(=O)[C@H](CCCNC(=N)N)NC(=O)[C@H](CC(C)C)NC(=O)[C@@H](CC(C)C)NC(=O)[C@H](Cc1ccc(O)cc1)NC(=O)[C@H](CO)NC(=O)[C@H](Cc1c[nH]c2ccccc12)NC(=O)[C@H](Cc1c[nH]cn1)NC(=O)[C@@H]1CCC(=O)N1 — Cmax (male Sprague-Dawley rat, plasma; subcutaneous, 12.5 mg/kg, single dose): 2780 ng/mL
CC12CC3CC(C)(C1)CC(NC(=O)Nc1ccc(C(=O)N4CCC[C@H](C(N)=O)C4)cc1F)(C3)C2 — Cmax (Sprague-Dawley rat, plasma; oral, 50 mg/kg): 1 µM
Cn1cc(-c2cc(N3CCCCS3(=O)=O)ccc2N[C@H]2CC[C@H](C)CC2)c2cc[nH]c2c1=O (stereo in doubt) — Cmax (Sprague-Dawley rat, plasma; oral, 3 mg/kg): 110 ng/mL
CCc1c(Cl)cccc1N1CCN(C[C@H](F)CCNC(=O)c2cc3ccccc3[nH]2)CC1 — Cmax (male Long-Evans rat, plasma; oral, 10 mg/kg): 2.13 µM
Cc1cc(/C=C/C#N)cc(C)c1Oc1nc(NC2CCN(Cc3ccc(P(C)(C)=O)cc3)CC2)nc2ccsc12 — Cmax (male Sprague-Dawley rat, plasma; intravenous, 2 mg/kg): 1780 ng/mL
CN1Cc2c(Cl)cc(Cl)cc2C(c2cccc(S(=O)(=O)NCCOCCOCCNC(=O)C(O)C(O)C(=O)NCCOCCOCCNS(=O)(=O)c3cccc(C4CN(C)Cc5c(Cl)cc(Cl)cc54)c3)c2)C1 (stereo not shown) — Cmax (male Sprague-Dawley rat, plasma; oral, 9 mg/kg): < 1 ng/mL
C[Si]1(C[C@@H](CN)CC(=O)O)CCCC1 — Cmax (male Sprague-Dawley rat, plasma; oral, 100 mg/kg, single dose): 97.5 µM
CN1Cc2c(Cl)cc(Cl)cc2[C@H](c2ccc(S(=O)(=O)NCCOCCOCCNC(=O)CCC(=O)NCCOCCOCCNS(=O)(=O)c3ccc([C@@H]4CN(C)Cc5c(Cl)cc(Cl)cc54)cc3)cc2)C1 — Cmax (male Sprague-Dawley rat, plasma; oral, 30 mg/kg): < 2 ng/mL
CSCOC1C(=O)C2(C)C(OCSC)CC3OCC3(OC(C)=O)C2C(OC(=O)c2ccccc2)C2(O)CC(OC(=O)C(O)C(C=C(C)C)NC(=O)OC(C)(C)C)C(C)=C1C2(C)C (stereo not shown) — Cmax (female Sprague-Dawley rat, plasma; intravenous, 2 mg/kg): 264 ng/mL
CN1Cc2c(Cl)cc(Cl)cc2C(c2cccc(S(=O)(=O)NCCOCCOCCOCCNC(=O)C(O)C(O)C(=O)NCCOCCOCCOCCNS(=O)(=O)c3cccc(C4CN(C)Cc5c(Cl)cc(Cl)cc54)c3)c2)C1 (stereo not shown) — Cmax (male Sprague-Dawley rat, plasma; oral, 9.4 mg/kg): 6 ng/mL
Cc1cc(/C=C2\CN(C(C)C)C/C(=C\c3cc(C)c(O)c(C)c3)C2=O)cc(C)c1O — Cmax (female Sprague-Dawley rat, plasma; intravenous, 20 mg/kg): 3200 ng/mL
CC(C)(C)C(=O)Nc1ccc2[nH]c(CN3CCC(N(CCCN4CCOCC4)CC4OC(n5cnc6c(N)ncnc65)C(O)C4O)CC3)nc2c1 (stereo not shown) — Cmax (male Sprague-Dawley rat, plasma; intraperitoneal, 20 mg/kg): 2030 ng/mL
NC(=O)c1cccnc1.O=c1[nH]cc(F)c(=O)[nH]1.O=c1[nH]cc(F)c(=O)[nH]1.O=c1[nH]cc(F)c(=O)[nH]1 — Cmax (rat, plasma; oral, 0.06 mmol/kg): 21.9 µM
COc1cc2ncnc(Oc3ccc(Nc4nccc5[nH]cc(-c6ccc(F)cc6)c(=O)c45)cc3F)c2cc1OC — Cmax (male Sprague-Dawley rat, plasma; oral, 10 mg/kg): 12700 ng/mL
CN1Cc2c(Cl)cc(Cl)cc2C(c2cccc(S(=O)(=O)NCCNC(=O)C(O)C(O)C(=O)NCCNS(=O)(=O)c3cccc(C4CN(C)Cc5c(Cl)cc(Cl)cc54)c3)c2)C1 (stereo not shown) — Cmax (male Sprague-Dawley rat, plasma; oral, 11 mg/kg): < 4 ng/mL
CC1(C)CC[C@]2(C(=O)O[C@@H]3O[C@H](CO[C@@H]4O[C@H](CO)[C@@H](O)[C@H](O)[C@H]4O)[C@@H](O)[C@H](O)[C@H]3O)CC[C@]3(C)C(=CC[C@@H]4[C@@]5(C)CC[C@H](O[C@@H]6OC[C@H](O)[C@H](O)[C@H]6O)[C@@](C)(CO)[C@@H]5CC[C@]43C)[C@@H]2C1 — Cmax (Sprague-Dawley rat, plasma; oral, 150 mg/kg): 1110 ng/mL
C[Si]1(C)CNC(=O)c2ccccc21 — Cmax (rat, plasma; oral, 5 mg/kg, single dose): 847 ng/mL
C[Si](C)(C)C[C@@H](CN)CC(=O)O — Cmax (male Sprague-Dawley rat, plasma; oral, 30 mg/kg, single dose): 54 µM
Nc1nc(Cl)nc2c1ncn2Cc1cc(OCC(F)F)cc(OC(F)F)c1 — Cmax (Sprague-Dawley rat, plasma; oral, 5 mg/kg): 1560 ng/mL
CCCN(c1ccc(C(=O)NCCC(=O)O)cc1)S(=O)(=O)c1cc(C)c(-c2ccc(C(C)(C)C)cc2)c(C)c1 — Cmax (rat, plasma; oral, 5 mg/kg): 35.3 ng/mL

Some of these lines once more:
Nc1nc(Cl)nc2c1ncn2Cc1cc(OCC(F)F)cc(OC(F)F)c1 — Cmax (Sprague-Dawley rat, plasma; oral, 5 mg/kg): 1560 ng/mL
CSCOC1C(=O)C2(C)C(OCSC)CC3OCC3(OC(C)=O)C2C(OC(=O)c2ccccc2)C2(O)CC(OC(=O)C(O)C(C=C(C)C)NC(=O)OC(C)(C)C)C(C)=C1C2(C)C (stereo not shown) — Cmax (female Sprague-Dawley rat, plasma; intravenous, 2 mg/kg): 264 ng/mL
CN1Cc2c(Cl)cc(Cl)cc2C(c2cccc(S(=O)(=O)NCCOCCOCCOCCNC(=O)C(O)C(O)C(=O)NCCOCCOCCOCCNS(=O)(=O)c3cccc(C4CN(C)Cc5c(Cl)cc(Cl)cc54)c3)c2)C1 (stereo not shown) — Cmax (male Sprague-Dawley rat, plasma; oral, 9.4 mg/kg): 6 ng/mL
